Measurements gathered from unrelated publications.
Several values in a cell are separate wells, animals, samples, runs or records. ± marks the error that the study gave.

The mRNA induction of C[C@@H]1C[C@H]2O[C@@]3(O[C@@H]2C(C)(C)O)[C@H](O)[C@@]2(C)[C@@H]4CC[C@H]5C(C)(C)[C@@H](O[C@@H]6OC[C@@H](O)[C@H](O)[C@H]6O)CC[C@@]56C[C@@]46CC[C@]2(C)[C@@H]13 is reported as 73.8% (agonist, qPCR, measured: Shp; medaka larvae, water exposure; 10 µM, 48 h; reference: maximal induction by reference agonist).
With CN(C(=O)n1cnc(-c2ccc[n+]([O-])c2)c1)C1CCCCC1 the AUC(0-t) was 385 ng·h/mL (measured: PEA; human, plasma; 100 mg single dose).
With CN[C@@H]1COc2c(S(=O)(=O)NC(=O)Nc3c4c(cc5c3CCC5)CCC4)cnn2C1 the inhibition was 27.4% (measured: IL-1β; human participants, whole blood ex vivo; 900 mg single dose, 72 h, together with: LPS/ATP; reference: baseline).
With O=C(O)CNC(=O)Cc1ccccc1 the sarcomere length was 1.7 µm (ventricular cardiomyocytes, C57BL/6 mouse; dose not given, 0.624 s).
Under “HbA1c change from baseline”, CN(C)C(=N)N=C(N)N is recorded as 3.09 ± 0.11 % points (ZDF rat; 100 mg/kg/day, 6 weeks; reference: baseline).
For c1ccc(-c2n[nH]cc2-c2ccnc3ccccc23)nc1, “log2 fold change” read 1.87 (kinase binding, competitor, MIB/MS competition, measured: PKH3; Candida albicans cell lysate; 10 µM; reference: DMSO).
The inhibition of O=C1O[C@H]([C@@H](O)CO)C(O)=C1O is reported as 20.7% (hydroxyl radical scavenging; 40 µM).
C[C@H]1O[C@@H](O[C@H]2CC[C@@]3(C)[C@@H](CC[C@]4(C)[C@@H]3C=C[C@]35OC[C@@]6(CCC(C)(C)C[C@H]63)[C@@H](O)C[C@]54C)[C@]2(C)CO)[C@H](O)[C@@H](O[C@@H]2O[C@H](CO)[C@@H](O)[C@H](O)[C@H]2O)[C@H]1O gave an AST/ALT ratio of 1.83 and 1.76 and 1.98 and 1.96 (Mus musculus, chronic-plus-binge ethanol, plasma; dose not given).
The EC50 of CC1(C)CCC(CN2CCN(c3ccc(C(=O)NS(=O)(=O)c4ccc(NCC5CCOCC5)c([N+](=O)[O-])c4)c(Oc4cnc5[nH]ccc5c4)c3)CC2)=C(c2ccc(Cl)cc2)C1 is reported as 2.4 nM (cell killing; canine lymph node CD3+ T cells, dog 30; 24 h).
C=CCn1c(=O)c2cnc(Nc3ccc(N4CCN(C)CC4)cc3)nc2n1-c1ccc2c(n1)[C@@](O)(CC)CC2: “tumour growth inhibition” 47.7% (SW1573 xenograft, NOD/SCID mice; oral, 80 mg/kg, day 28, once daily intermittent cycles).
CCO[C@H]1CCN(Cc2c(OC)cc(C)c3[nH]ccc23)[C@H](c2ccc(C(=O)O)cc2)C1 — result for “PNH RBC clone size”: 396% (PNH patients, blood; oral, 50 mg then 200 mg, week 8, mean percent change; reference: baseline).
COc1ccc(-c2cncc(N[C@@H](C)c3cccc(NC(=O)c4cncc(C)c4)c3)n2)cc1OC has a fold change of 0.803 (measured: rno-miR-374-5p; rat SU5416/hypoxia model, lung; dose not given; reference: SU5416/hypoxia vehicle).
Cc1n[nH]c2ccc(-c3cc(OC[C@@H](N)Cc4ccccc4)cnc3-c3ccoc3)cc12 — result for “log2 fold change”: -0.67 (kinase binding, competitor, MIB/MS competition, measured: HSL1; Candida albicans cell lysate; 10 µM; reference: DMSO).
Under “normalized enrichment score”, CN(C)C(=O)c1cc2cnc(Nc3ccc(N4CCNCC4)cn3)nc2n1C1CCCC1 is recorded as 1.15 (RNA-seq GSEA, measured: HALLMARK_APICAL_SURFACE; MB002 tumour; concentration not given, in vivo; reference: vehicle, direction not given).
For O=C(O)C1=CC(=C(c2ccc(O)c(C(=O)O)c2)c2ccc(O)c(C(=O)O)c2)C=CC1=O, “CD8+ T cells in CD3+” read “increased” (flow cytometry; C57BL/6J mouse MC-38 tumour, tumour-infiltrating lymphocytes; peritumoral, dose not given, 2 cycles; reference: vehicle).
CC[C@H](C)[C@H](NC(=O)[C@H](C)NC(=O)CNC(=O)[C@H](Cc1ccccc1)NC(=O)[C@H](CC(N)=O)NC(=O)[C@H](CC(N)=O)NC(=O)[C@H](CO)NC(=O)[C@H](CO)NC(=O)[C@H](Cc1c[nH]cn1)NC(=O)[C@@H](NC(=O)[C@H](CC(C)C)NC(=O)[C@H](Cc1ccccc1)NC(=O)[C@H](CC(N)=O)NC(=O)[C@H](C)NC(=O)[C@H](CC(C)C)NC(=O)[C@H](CCCNC(=N)N)NC(=O)[C@H](CCC(N)=O)NC(=O)[C@@H](NC(=O)[C@H](C)NC(=O)[C@@H]1CSSC[C@H](NC(=O)[C@@H](N)CCCCN)C(=O)N[C@@H](CC(N)=O)C(=O)N[C@@H]([C@@H](C)O)C(=O)N[C@@H](C)C(=O)N[C@@H]([C@@H](C)O)C(=O)N1)[C@@H](C)O)C(C)C)C(=O)N[C@@H](CC(C)C)C(=O)N[C@@H](CO)C(=O)N[C@@H](CO)C(=O)N[C@H](C(=O)N[C@@H](CC(N)=O)C(=O)N[C@H](C(=O)NCC(=O)N[C@@H](CO)C(=O)N[C@@H](CC(N)=O)C(=O)N[C@H](C(=O)N[C@@H](Cc1ccc(O)cc1)C(N)=O)[C@@H](C)O)C(C)C)[C@@H](C)O gave an insulin secretion of roughly 7.2% (isolated mouse islets; 10 µM, 24 h, together with: 16.7 mM glucose (high); reference: control).
CC(C)NCC(O)c1ccc(O)c(O)c1 (centres unmarked) gave a sarcomere length of 1.53 µm (ventricular cardiomyocytes, C57BL/6 mouse; dose not given, 0.828 s).
The Iba1-positive area of O=P(O)(O)C(Cl)(Cl)P(=O)(O)O is reported as 0.45% and 0.36% and 0.96% (Mus musculus, subarachnoid haemorrhage, hippocampal fissure; concentration not given, day 1; reference: total area).
For CCCCC1(CCCC)CN(c2ccccc2)c2cc(SC)c(OCC(=O)N[C@@H](C(=O)NCC(=O)O)c3ccccc3)cc2S(=O)(=O)C1, the plasma C4 was 38.7 ng/mL (measured: 7α-hydroxy-4-cholesten-3-one; human, plasma; 2.5 mg once daily, day 9).
With OC[C@H]1O[C@@H](c2ccc(Cl)c(Cc3ccc(O[C@H]4CCOC4)cc3)c2)[C@H](O)[C@@H](O)[C@@H]1O the glucose AUEC was 368 ± 41.9 mg·h/dL (healthy Korean men, blood; oral, dose not given, 2 h, steady state OGTT).
COc1cc(/C=C/C(=O)CC(=O)/C=C/c2ccc(O)c(OC)c2)ccc1O has a plasma HDL-C of 0.97 ± 0.18 mmol/L (high-fat diet hyperlipidaemic rat; oral, 200 mg/kg daily, 4 weeks).
CCN(Cc1nc2c(N)nc3cc(-c4cc[nH]n4)ccc3c2[nH]1)C(C)=O: “mean fold change” 5 (immunohistochemistry, measured: PD-L1+ immune cells; patients with advanced solid tumours, non-injected tumour lesions; dose not given, monotherapy; reference: baseline).
Cc1c(NC(=O)c2cccnc2)c(=O)n(-c2ccccc2)n1C gave a necrotic area of 6.7% and 6.2% and 4.3% and 5.8% and 5.9% (histology; Dmd C3333Y mice, triceps; dose not given).
Cc1ccc([C@@H]2O[C@H](CO)[C@@H](O)[C@H](O)[C@H]2O)cc1Cc1ccc(-c2ccc(F)cc2)s1 — result for “change in fasting plasma glucose”: -8 mg/dL (Japanese type 2 diabetes patients; 25 mg, day 2; reference: day 1).
C[C@H]1C[C@H]2CSC(N)=N[C@@]2(c2nc(NC(=O)c3ccc(OC(F)F)cn3)cs2)CO1 — result for “percent change from baseline”: -40.6% (measured: Aβx-40; healthy adults, plasma; 5 mg once daily, day 14; reference: placebo).
Under “CD4+ naive T-cell change”, NC(=O)c1cnc2[nH]ccc2c1N[C@@H]1[C@@H]2CC3C[C@H]1C[C@@](O)(C3)C2 is recorded as -4.65% (flow cytometry; Japanese healthy men, blood; oral, 100 mg twice daily, 72 h after day 7 dose; reference: baseline).
For C=Cc1c(C)c2cc3nc(c(CC(=O)O)c4[nH]c(cc5nc(cc1[nH]2)C(C)=C5CC)c(C)c4C(=O)O)[C@@H](CCC(=O)O)[C@@H]3C, the M1 cells was 1.97% and 1.51% and 1.28% (flow cytometry; mouse, 4T1 tumour-bearing; dose not given, 1 h).
CN(C)C(=O)Oc1cccc([N+](C)(C)C)c1 gave a train-of-four ratio of 4.4 (neuromuscular block reversal; rat; dose not given, 2 (unit not given), together with: cisatracurium; reference: T1 twitch).
N#Cc1ccc2c(-c3ccncc3)c(-c3ccc(F)cc3)nn2c1 — result for “log2 fold change”: -4.72 (kinase binding, competitor, MIB/MS competition, measured: YCK2; Candida albicans cell lysate; 10 µM; reference: DMSO).
C[C@]12CC[C@@H]3c4ccc(O)cc4CC[C@H]3[C@@H]1CC[C@@H]2O has a mRNA level of 0.0492 (RT-qPCR, measured: CO; Arabidopsis thaliana ING1:FLAG seedlings; 20 µM, 4 h after treatment, replicate rep1, unit not given; reference: TUB2).
The DHO concentration of Cc1oncc1C(=O)Nc1ccc(C(F)(F)F)cc1 is reported as 3.32 ± 0.127 µM (measured: dihydroorotate; female CD-1 mice, blood; oral, 10 mg/kg daily, 8 h after dose 1, 10-day dosing).
CCCCCN1C[C@H](O)[C@@H](O)[C@H](O)[C@@H]1CO — result for “number of increased sphingolipids”: 9 (mouse Hexb-/-, plasma; 300 mg/kg/day; reference: untreated Hexb-/- mice).
CC(=O)Oc1cc2c(s1)CCN(C(C(=O)C1CC1)c1ccccc1F)C2 (centres unmarked) — result for “patients with inhibition above threshold”: 0% (platelet aggregation, light transmission aggregometry; human patients, platelet-rich plasma; dose not given, 1 h, inhibition threshold 90%, together with: ADP 5 µM).
The k4 of O=C(OC(C(F)(F)F)C(F)(F)F)N1CCN(Cc2cccc(Oc3ccccc3)c2)CC1 is reported as 0.261 min⁻¹ (PET blocking study; rhesus monkey, brain CB; 0.3 mg/kg, compound pretreatment, together with: [18F]T-401 tracer).
COc1ccccc1[C@H](Cn1c(=O)n(C(C)(C)C(=O)O)c(=O)c2c(C)c(-c3ncco3)sc21)OC1CCOCC1: “fractional hepatic DNL” 6.89 % new palmitate ([1-13C]acetate infusion, isotopomer analysis; overweight or obese healthy men, plasma VLDL-TG palmitate; oral, 20 mg single dose, -1 h relative to dose, fasted baseline).
For COc1nnc2ccc(N3CCC(c4ccc(OCCN5CCN(C)C(=O)[C@H]5C)cc4)CC3)nn12, “time above HEXIM1 threshold” read 5.1 h (human patients; 30 mg once daily, 1.5-fold above baseline).
N#Cc1ccn2c(-c3ccncc3)c(-c3ccc(F)cc3)nc2c1 — result for “log2 fold change”: -0.121 (kinase binding, competitor, MIB/MS competition, measured: CKA1; Candida albicans cell lysate; 100 nM; reference: DMSO).
For CCOc1c([C@H](C)n2nc(C)c3c(N)ncnc32)cc(Cl)c(F)c1[C@@H]1CNC(=O)C1, “plasma protein level change” read 250% (Olink proximity extension proteomics, measured: HAOX1; human FL or MZL patients, plasma; dose not given, week 8; reference: baseline).
Under “pathway activation z-score”, Cn1cc(Nc2nccc(-c3ccc4c(c3)CN(C3COC3)CC[C@H]4NC(=O)c3cn(C(C)(C)C)nn3)n2)cn1 is recorded as 1.58 (measured: Protein Kinase A Signaling; splenic B cells, mouse; in vivo, 30 mg/kg, IgD-activated B cells; reference: vehicle, positive = activation).
For NCC(=O)Nc1cncc(-c2nn3c(=O)cc(N4CCNCC4)nc3s2)c1, the inhibition was 48.6% (ADP-induced platelet aggregation, light transmission aggregometry; human, stable CAD on aspirin, ex vivo platelets; subcutaneous, 0.05 mg/kg, 60 min post-dose, mean value, together with: ADP 20 µM).
C[C@H](Oc1ccc(Br)cc1-c1ccon1)C(=O)O — result for “difference from placebo”: 0.357 ms (MVRC latency; human, tibialis anterior muscle; 50 mg, SAD).
For O=C(COc1ccc(Cl)cc1)NC12CC(c3nnc([C@H]4C[C@@H](OC(F)(F)F)C4)o3)(C1)C2, “CHAC1 mRNA change” read -74.8% (healthy human, PBMC; 100 mg once daily, day 14, 4 h post-dose, median, together with: sodium arsenite ex vivo; reference: baseline).
Under “fat pad weight”, Oc1nc2nonc2cc1Nc1c(F)c(F)c(F)c(F)c1F is recorded as “no effect” (obese C57BL/6J mice, Western diet 19 weeks, subcutaneous, retroperitoneal fat; oral gavage, 130 mg/kg/day, end of treatment; reference: vehicle).
Under “change from baseline”, N#Cc1ccc2c(c1)[C@H]1CCCN(C(=O)c3ccc4[nH]cnc4c3)[C@H]1C2 is recorded as -14 nmol/L (measured: cortisol; human, Phase II trial; oral, 240 mg once daily, HPA axis, mean).
Under “stable disease, best response”, O=C1Nc2cc3[nH]nc(-c4ccncc4)c3cc2CN1Cc1ccccc1 is recorded as 0% (RECIST v1.1; human, relapsed or refractory advanced solid tumours; intravenous, 1.8 mg/kg, pooled schedules).
For OC(CCN1CCCCC1)(c1ccccc1)C1CC2C=CC1C2 (centres unmarked), “change in EEG Beta2-power Pz-O1” read 6.9% (resting-state EEG; healthy elderly humans; oral, 2 mg, eyes open, LS mean; reference: baseline).
CCO — result for “maximum change in systolic blood pressure”: -10.6 ± 8.89 mmHg (supine; concentration not given, 0 to 4 h; reference: baseline).

Excerpt of the above:
The DHO concentration of Cc1oncc1C(=O)Nc1ccc(C(F)(F)F)cc1 is reported as 3.32 ± 0.127 µM (measured: dihydroorotate; female CD-1 mice, blood; oral, 10 mg/kg daily, 8 h after dose 1, 10-day dosing).
Under “change from baseline”, N#Cc1ccc2c(c1)[C@H]1CCCN(C(=O)c3ccc4[nH]cnc4c3)[C@H]1C2 is recorded as -14 nmol/L (measured: cortisol; human, Phase II trial; oral, 240 mg once daily, HPA axis, mean).
For CCCCC1(CCCC)CN(c2ccccc2)c2cc(SC)c(OCC(=O)N[C@@H](C(=O)NCC(=O)O)c3ccccc3)cc2S(=O)(=O)C1, the plasma C4 was 38.7 ng/mL (measured: 7α-hydroxy-4-cholesten-3-one; human, plasma; 2.5 mg once daily, day 9).
N#Cc1ccc2c(-c3ccncc3)c(-c3ccc(F)cc3)nn2c1 — result for “log2 fold change”: -4.72 (kinase binding, competitor, MIB/MS competition, measured: YCK2; Candida albicans cell lysate; 10 µM; reference: DMSO).
